Values quoted from earlier work, collected from citations in different studies.
Compare with care: the assays were run in different laboratories. ± gives the spread as reported.
B1: CCL1; sequence looked up; chain KSMQVPFSRCCFSFAEQEIPLRAILCYRNTSSICSNEGLIFKLKRGKEACALDTVGWVQRHRKMLRHCPSKRK

Substance	tested on	assay	test system	conditions	scale	endpoint	result
LLGGGSLSSSLDAAAFR	–	isocratic RP-HPLC, C18 column	peptide, water/acetonitrile, 0.1% TFA	25 °C	–	retention coefficient S	20.9
pegcetacoplan	–	–	human	180 mg/day for 28 days (2.6 mg/kg), arithmetic mean	–	Cmax	473 µg/mL
ivermectin	A549	–	–	–	–	CC50	10 µM
coproporphyrin I	OATP1B1	–	human	dose not given, together with: rifampicin	reference: without rifampicin	AUC fold increase	4 fold
KWIKIWFIWRRIKWRK	Pseudomonas aeruginosa	–	peptide	–	–	MIC	46.9 µg/mL
SNLQLLR	–	isocratic RP-HPLC, C18 column	peptide, water/acetonitrile, 0.1% TFA	25 °C	–	retention coefficient S	22.3
teicoplanin	–	–	–	pH 7.4	–	logD	-3.6
[18F]AlF-NOTA-octreotide	–	–	human plasma	2 h	–	remaining intact compound	98.5 ± 0.5%
cucurbit[7]uril	insulin	amyloid toxicity	–	concentration not given	–	cytotoxicity reduction	~100%
B1 (CCL1)	CCR8 L258A mutant	IP accumulation, agonist	–	–	–	EC50	27 nM
LASAADFG	–	isocratic RP-HPLC, C18 column	peptide, water/acetonitrile, 0.1% TFA	25 °C	–	retention coefficient S	14.8
coproporphyrin III	OATP1B1	–	monkey	dose not given, together with: rifampicin	reference: without rifampicin	AUC fold increase	3.6 fold
GVPMGSVIKKRRKRMAKKKHRKLLRKTRHQRRNKK	Escherichia coli	–	peptide, DH5α	–	–	MIC	7 µM

A few entries again:
Substance	tested on	assay	test system	conditions	scale	endpoint	result
LASAADFG	–	isocratic RP-HPLC, C18 column	peptide, water/acetonitrile, 0.1% TFA	25 °C	–	retention coefficient S	14.8
